Measurements gathered from unrelated publications.
Numbered parts are unrelated; each lists some results of a single study.

Block 1 — technique: protein binding microarray; form: double-stranded DNA, one strand shown; matrix: in vitro; concentration: not given; baseline: not given; reading: higher = stronger binding
Target: Histone acetyltransferase KAT6A, winged helix 1, GST fusion (KAT6A, Homo sapiens, UniProt Q92794, residues 1-85)
Notes: 8-mer, flanks averaged, mean of 2 arrays, mostly near background
Residues (chain): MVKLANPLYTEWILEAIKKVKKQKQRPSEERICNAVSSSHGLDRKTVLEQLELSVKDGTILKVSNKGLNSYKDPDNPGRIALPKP
Sequence | E-score
GACGGATC | 0.161
CCCATTAA | -0.0578
AGCTGCAA | -0.0288
AAGTTCCA | -0.17
GAGGCTCC | 0.00252
TCCGTCGA | 0.218
AAAGTTGT | 0.026
AAGCGAGC | 0.0941
CGGAGCCA | 0.105
AATACTCC | -0.0911
ATTTTGAC | -0.234
GAATTGCA | -0.226
CGGGACCC | 0.336
CGAGTACG | 0.232
CAAGAATC | -0.0971
ATGCCACC | -0.0435
GGGGAGAC | -0.0346
CTCTTCTC | 0.0241
ACAGAATC | -0.145
GACCAGAC | -0.312
AAATTCGT | -0.139
ATTGAACG | -0.0743

Block 2 — technique: RNA Bind-n-Seq; form: RNA; matrix: in vitro; concentration: 365 nM; baseline: no-protein control; reading: higher = stronger binding
Target: RNA binding protein fox-1 homolog 2, RRM domain, GST-SBP tag (RBFOX2, Homo sapiens, UniProt O43251-10, residues 100-194)
Notes: natural RNA segment, single round, ends assumed
All sequences stand within: GGGAGUUCUACAGUCCGACGAUC … UGGAAUUCUCGGGUGCCAA
Residues (chain): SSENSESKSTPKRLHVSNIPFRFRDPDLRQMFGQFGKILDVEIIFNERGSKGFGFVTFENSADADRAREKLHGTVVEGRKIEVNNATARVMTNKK
Sequence | RBNS enrichment (R)
ACCACUACACUUGUAUGGUUGAGUGUUUAAAAUGUCUAUCACCCUCACUUCAGAGUGUGACUCUUUAAAUAUUAAAAUAGAUACUAACUGUUCAUAGAACAGGCCGAUUC | 0.228
UGUUAGUGGUAACUCAGUUUGUCUUUAAAUAGUUACAGAAGGGAUACGUCAUUUGUUAAUGCUUUUGUGAAGUGAGUUAAACGAGCUUUCUGUAUUUUAAUGCUUUAGUG | 3.18
CCCAGUUACCACUAGGACAUUCUCUAGUAGAUCCAUUUUGCUGUCACUUUAUUCUAUGGCUAGAAAGUCAGUGGAAAGUAAAUGUGCCAAACUCACUUGUCAGAACACAC | 0.316
AUCCAUGCAGUUUUAUGUCUUCAUAUAACUGGUAUCUUGUGAGUUUGCAAGCAAUGGGAUGAGCAAGAAAAAAAGGACGCAUGGAGGAGAAAAAUUUGAACGAGGCUAGU | 2.87
ACACCCACAGCAGCAAGAAUGACCUCCUGCAGCAGAUAUUCCACCUGUAAUAGCACUUUGGAACUGUGGGCAAAACCAAAAGGCUAGUGUUUCCAUUUAUUCCAUGUUGG | 0.826
ACUCUAGUUAGGACAGACUUGUGCUUUUAUCCUGACUAAAAAGUUAAAUAUUUAAGUCACAUACAUGGUAAAGAUCUAAGUUUCAUUUUCCACAUGGAUGACCAGGAACC | 0.285
GGUGUCACAGUGUUUGGUUCUUUUGUUUUGUUUUUUAACACUUGUCUCCCCUCAUACACAAAAGUACAAUAUGAAGCCUUCAUUUAAUCUCUGCAGUUCAUCUCAUUUCA | 0.713
UCCUCCAUCCCCCACUUCACCCCAUCCCAUACCAGUUCCAUCCAGGGUCUGCUUAACUGCCAAGAGCAGGUCCUGGAGUUCCCUUCACCUGCAGAGUCCUUUUCAUGACC | 1.68
CCCUCUCACCCCAAAUGUGUAAUGGAAAAUUUUUAAUUAAGAAAAACUUCAGUUUUGCCAAGUGCAAUGGUGUUGCCUUCUUUAAAAAAUGCCGUUUUCUUACACUACCA | 0.624
UAAAUGAACUUUGAUCUCUGUUUUAAAGAUUAUUAAAAAACAUUGUGUAUCUAUACAUAUGGCUCUUGAGGACUUAGCUUUCACUACACUACAGGAUAUGAUCUCCAUGU | 0.405
UGCAUAUUGGGGUUUUUGUUUGUUUGUUUUUUAAGCACUUACCAAGUGCCCUAUCCCUGGCAGGCCCCUAGUGGGGGUGUCGUGGCUUUUUUCAGAGUCUAUAAGCAUGC | 5.59
GUACAUGACUGUAUAAUUACGAUUAUAGUACCACUGCACAUCAUGUUUUUUUUUUUAAGACAAAAAAGAUGUUUAAAGACCAAAAACUGUGCUGAGAAAGUAUGCCCCAC | 0.574

Block 3 — technique: RNA Bind-n-Seq; form: RNA; matrix: in vitro; concentration: not given; notes: RNA with constant flanks, ends assumed; baseline: input RNA pool; reading: higher = stronger binding
Target: RING finger protein unkempt homolog, zinc fingers 1-6, GST-SBP tag (UNK, Homo sapiens, UniProt Q9C0B0, residues 30-357)
Chain of UniProt Q9C0B0 (30-357, looked up): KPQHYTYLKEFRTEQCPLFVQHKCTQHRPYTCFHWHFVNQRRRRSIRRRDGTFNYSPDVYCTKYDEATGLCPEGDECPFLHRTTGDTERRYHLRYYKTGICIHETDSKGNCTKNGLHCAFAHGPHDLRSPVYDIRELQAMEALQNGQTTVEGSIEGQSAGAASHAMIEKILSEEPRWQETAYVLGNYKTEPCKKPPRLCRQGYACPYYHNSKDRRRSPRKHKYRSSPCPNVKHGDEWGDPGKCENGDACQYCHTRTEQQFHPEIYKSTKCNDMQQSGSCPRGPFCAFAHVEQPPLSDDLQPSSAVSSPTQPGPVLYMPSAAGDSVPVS
All sequences stand within: GGGAGUUCUACAGUCCGACGAUC … CAACAGAGGAUUGAGCAUCA
Sequence | bound/input enrichment [ratio]
GUAAUCCUGGUUGCUUGGGAAGUUGAGAUAGGAUAACAAGUUCAAGGCCAGCCUGCACAACUCCGAACCUGUCUGGAAAUGAGAAAUAACUACCCUCACGAGGACUAUUAACAUAGGAUU | 0.414
CUCAUGCAGUUGUGGUCAAUAUUGUGGUAAUCGCUAAUUGUACUGAUUGUUUAAGUGUGCAUCCGUUGUGUCUCCCCAGCUAGAUUGUAAGCUCCUGGAGGACAGGGACCACCUCUACAA | 0.189
UAACUAUUCAUUUUUAGCUUUUGUCUCCAGUGCAUGAUCUCAUAUUUUUGCUUUUAUUUUCCGUAUAAGAACAUUUAUAAAAUCAUAUUUUUGUUACUGCAAUUGUUUUAUUUGUUGUGU | 0.781
GCUAGUAACAAUCGUUUAUUUCAGCUUGUAAUGAAAGGCCUGCUUUAUGAAUGCUGUGCCGAAUUUUGUCAGAGUAAAGCAACUGGAGAAGAAAUUACAGAAAGCGAAGUGCUUCUUGGC | 0.307
UCGCCUGUUCAGGACAUCGACACUCCAGAGGUUGAUUUGUACCAAUUACAAGUAAAUACACUCCGAAGAUACAAAAGACACUUCAAGCUUCCAACCAGACCAGGUCUAAAUAAAGCACAA | 0.119
UAAAAAAUCAAGCUAUGUACUUAUUUUCUAUAUUUGGGUGUGUUAAAUUGAGGAUCCGAAAAAUCCACAUAAUCACUGAUAAAGCAUUGAAACAGAAUAACCCAAGGGUAGUGUACCGAU | 0.215
CCGGGUCAGCUGAGGUGGACGGCCUCGGCAAGCGGGUUUUUUUCCCCUAGAGUUGUAUAUACCGAGCAUCCUGGACUCCACAAUGAACGGACAGUUGGACCUAAGUGGGAAGCUGAUUAU | 0.534
AUUAAACAUUACUUCAGUGUAGUUCCCGGAAAUGUAGGCUCUUCCCCCAGAUCUUCUGAUUCCGUCAAAUUAGCUCAAGAAUGCUGUUACCAUAGCAACAGGGGCAUCGCAGCUCAUGGA | 0.275
GGCAUCGCGGGCUGUGGAACUCUAUUAGUAUUGGAUCAAAAUGAAUCUGGACUUCAGAUUUUCCGAAGCUUUGACUGGAAUGACGGCUUGUUUGACGUUACCUGGAGUGAAAACAAUGAG | 1.17
UCCUGAAGCUUUGUGUUUGGCUGCACCUGCAUAAGCUGCUACAAAUAGAAUAAAGAAUUUCACCGCCUGUAUCUAUCAUUUAGAUGCAUGGAAAAAAAUGGGCUUUGCACACAAUGGGUU | 3.93
CUGAAUAGCAAUAAAUAUUUUCCCAGCAGGGUUAGCAUAAAGGAAUCAUCUGUAGCGAAACCCGGAUCAGUAUGCCGUAGGAUUUACAGAAUAUUUUCACAUGCUUAUUUUCAUCAUCGG | 1.99

Block 4 — technique: protein-binding microarray; form: double-stranded DNA, one strand shown; matrix: in vitro; concentration: not given; reading: higher = stronger binding
Target: Transcriptional repressor CTCF (CTCF, Homo sapiens, UniProt P49711, residues 1-727, full length assumed)
Chain of UniProt P49711 (whole entry, looked up): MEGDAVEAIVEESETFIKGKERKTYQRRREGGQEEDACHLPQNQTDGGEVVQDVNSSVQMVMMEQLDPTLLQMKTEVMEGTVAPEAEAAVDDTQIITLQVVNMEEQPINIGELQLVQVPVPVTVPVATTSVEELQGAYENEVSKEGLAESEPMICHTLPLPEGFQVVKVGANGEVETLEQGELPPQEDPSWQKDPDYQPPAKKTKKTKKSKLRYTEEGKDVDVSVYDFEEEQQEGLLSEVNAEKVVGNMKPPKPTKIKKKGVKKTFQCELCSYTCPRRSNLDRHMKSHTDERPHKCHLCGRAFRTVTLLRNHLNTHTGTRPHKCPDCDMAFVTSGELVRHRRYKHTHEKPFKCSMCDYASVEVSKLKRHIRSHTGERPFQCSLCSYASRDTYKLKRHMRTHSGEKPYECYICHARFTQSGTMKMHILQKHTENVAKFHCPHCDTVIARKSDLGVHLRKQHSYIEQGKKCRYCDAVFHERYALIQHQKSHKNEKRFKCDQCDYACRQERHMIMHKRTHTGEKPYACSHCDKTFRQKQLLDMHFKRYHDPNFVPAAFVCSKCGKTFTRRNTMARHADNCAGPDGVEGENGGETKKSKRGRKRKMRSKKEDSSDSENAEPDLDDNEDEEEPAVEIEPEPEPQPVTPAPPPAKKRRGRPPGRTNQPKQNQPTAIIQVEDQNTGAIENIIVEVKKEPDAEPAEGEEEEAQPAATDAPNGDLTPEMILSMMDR
Notes: k-mer, scored over probes, only values ≥0.25
Sequence | E-score
ATATTTAC | 0.397
GTAAATTA | 0.262
ATGATAAT | 0.312
AATTTAAA | 0.301
CCCACCCC | 0.331
ACAATAAT | 0.298
GATAAATA | 0.272
AGTAAATA | 0.357
ATAAATAT | 0.354
AAAAGTAA | 0.264
ATATCATA | 0.315
CCATAACA | 0.266
TACAGGTA | 0.26
AATATTAA | 0.329
GTTATTTA | 0.259
ATACTTTA | 0.262
TTAATAAA | 0.312

Block 5 — technique: universal PBM; form: double-stranded DNA, one strand shown; matrix: in vitro; concentration: 600 nM; reading: higher = stronger binding
Target: Sal-like protein 4, full length isoform A (SALL4, Homo sapiens, UniProt Q9UJQ4, residues 1-1053)
Chain of UniProt Q9UJQ4 (whole entry, looked up): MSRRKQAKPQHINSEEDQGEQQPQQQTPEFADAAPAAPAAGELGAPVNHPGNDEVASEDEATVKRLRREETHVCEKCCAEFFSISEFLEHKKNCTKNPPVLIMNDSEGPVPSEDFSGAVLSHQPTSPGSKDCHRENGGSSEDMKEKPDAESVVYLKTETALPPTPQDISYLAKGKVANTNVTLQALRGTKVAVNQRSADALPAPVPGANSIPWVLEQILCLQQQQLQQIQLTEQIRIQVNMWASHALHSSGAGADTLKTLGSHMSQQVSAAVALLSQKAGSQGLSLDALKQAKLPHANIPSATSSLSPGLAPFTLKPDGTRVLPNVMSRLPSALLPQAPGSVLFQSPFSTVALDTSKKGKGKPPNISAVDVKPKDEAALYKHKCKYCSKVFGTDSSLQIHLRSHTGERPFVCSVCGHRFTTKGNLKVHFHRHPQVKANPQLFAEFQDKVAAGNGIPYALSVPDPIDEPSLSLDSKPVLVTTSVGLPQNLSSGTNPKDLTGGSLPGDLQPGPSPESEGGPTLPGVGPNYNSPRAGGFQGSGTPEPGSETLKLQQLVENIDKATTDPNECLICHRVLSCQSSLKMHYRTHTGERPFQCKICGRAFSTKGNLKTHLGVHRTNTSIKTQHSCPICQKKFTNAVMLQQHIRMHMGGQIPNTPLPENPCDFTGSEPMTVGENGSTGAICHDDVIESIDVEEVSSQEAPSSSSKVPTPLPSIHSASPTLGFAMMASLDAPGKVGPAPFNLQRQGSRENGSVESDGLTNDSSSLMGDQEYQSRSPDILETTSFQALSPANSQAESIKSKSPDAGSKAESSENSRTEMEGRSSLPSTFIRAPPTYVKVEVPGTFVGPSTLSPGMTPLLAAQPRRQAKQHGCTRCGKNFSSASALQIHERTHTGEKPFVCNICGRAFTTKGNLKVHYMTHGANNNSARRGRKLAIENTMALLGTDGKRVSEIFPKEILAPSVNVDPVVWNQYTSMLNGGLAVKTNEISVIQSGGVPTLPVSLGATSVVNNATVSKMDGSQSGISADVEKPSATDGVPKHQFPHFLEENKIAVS
Notes: 8-mer, flanks averaged, mean of replicates
Sequence | E-score
AATAGGTG | 0.105
ATTCATCG | 0.123
GCTGCAAC | -0.0595
CAGAGACG | -0.143
ACTCCCTA | 0.0285
AAGCTTAG | 0.073
CAAATAGA | 0.175
CGTGAATC | -0.0529
AGAGCGCA | -0.248
CGTATTTA | 0.262
AGTTGTAC | 0.128
GTAGAGGA | -0.0728
AGGTCTAC | -0.105
CGCTAAAA | 0.00773
CGACCAGA | -0.16
AAAACTGT | 0.189

A few entries again (block 1):
Sequence | E-score
GACGGATC | 0.161
CCCATTAA | -0.0578
AGCTGCAA | -0.0288
AAGTTCCA | -0.17
GAGGCTCC | 0.00252
